# Measured values collected from several papers.
# Chains of the proteins cited; added tags and fusions are not shown.
# UniProt Q9Y463, whole entry: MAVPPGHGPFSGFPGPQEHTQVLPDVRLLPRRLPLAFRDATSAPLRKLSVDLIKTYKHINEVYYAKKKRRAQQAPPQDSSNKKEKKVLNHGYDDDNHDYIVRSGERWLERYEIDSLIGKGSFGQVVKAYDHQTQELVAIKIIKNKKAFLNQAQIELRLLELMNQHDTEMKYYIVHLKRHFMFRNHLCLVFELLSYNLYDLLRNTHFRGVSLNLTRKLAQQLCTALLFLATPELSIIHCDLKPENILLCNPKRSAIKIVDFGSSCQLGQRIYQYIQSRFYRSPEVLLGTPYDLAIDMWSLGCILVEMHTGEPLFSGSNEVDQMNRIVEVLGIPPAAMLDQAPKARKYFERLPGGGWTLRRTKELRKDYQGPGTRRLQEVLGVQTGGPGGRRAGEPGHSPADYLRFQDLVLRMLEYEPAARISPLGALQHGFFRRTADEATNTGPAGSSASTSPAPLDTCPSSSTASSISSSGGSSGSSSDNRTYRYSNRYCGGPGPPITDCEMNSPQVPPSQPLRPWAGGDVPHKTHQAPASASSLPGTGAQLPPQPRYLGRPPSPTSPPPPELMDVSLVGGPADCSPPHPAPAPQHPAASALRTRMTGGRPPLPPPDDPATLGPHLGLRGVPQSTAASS
# UniProt P54764, whole entry, looked up: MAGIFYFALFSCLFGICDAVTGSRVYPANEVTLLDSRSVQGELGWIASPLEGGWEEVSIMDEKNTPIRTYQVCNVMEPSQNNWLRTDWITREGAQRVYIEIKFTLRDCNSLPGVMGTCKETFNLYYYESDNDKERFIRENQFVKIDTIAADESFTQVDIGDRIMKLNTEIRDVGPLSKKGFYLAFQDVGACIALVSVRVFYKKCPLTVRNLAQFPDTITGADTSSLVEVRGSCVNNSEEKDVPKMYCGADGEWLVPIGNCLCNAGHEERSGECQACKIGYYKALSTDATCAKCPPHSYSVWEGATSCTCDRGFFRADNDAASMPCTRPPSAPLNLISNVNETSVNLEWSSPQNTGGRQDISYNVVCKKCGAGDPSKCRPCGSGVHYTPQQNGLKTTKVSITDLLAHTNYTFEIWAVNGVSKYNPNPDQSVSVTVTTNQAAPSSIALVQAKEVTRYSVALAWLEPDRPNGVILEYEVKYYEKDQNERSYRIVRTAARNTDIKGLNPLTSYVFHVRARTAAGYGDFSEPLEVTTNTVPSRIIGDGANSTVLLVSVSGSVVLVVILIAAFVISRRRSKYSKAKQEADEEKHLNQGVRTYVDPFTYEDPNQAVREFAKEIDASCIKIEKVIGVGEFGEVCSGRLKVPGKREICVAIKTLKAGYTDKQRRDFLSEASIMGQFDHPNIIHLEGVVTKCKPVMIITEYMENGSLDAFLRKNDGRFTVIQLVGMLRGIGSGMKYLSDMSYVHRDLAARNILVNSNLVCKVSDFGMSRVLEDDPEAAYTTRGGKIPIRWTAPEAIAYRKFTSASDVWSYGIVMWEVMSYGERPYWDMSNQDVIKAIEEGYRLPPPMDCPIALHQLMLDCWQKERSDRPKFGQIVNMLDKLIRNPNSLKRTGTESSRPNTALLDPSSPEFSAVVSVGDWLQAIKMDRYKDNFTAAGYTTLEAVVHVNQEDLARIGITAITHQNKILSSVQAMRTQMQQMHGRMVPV
# Each line is one published result; not all experiments were run side by side. Numbers after ± are the reported error.
Substance,target or system,assay,test system,setting,scale,endpoint,value
CC(C)C[C@H](NC(=O)[C@@H]1C[C@@H](O)CN1C(=O)[C@H](Cc1ccccc1)NC(=O)[C@H](CO)NC(=O)[C@H](C)NC(=O)[C@H](Cc1ccccc1)NC(=O)[C@@H](NC(=O)[C@H](CCC(=O)O)NC(=O)[C@H](Cc1c[nH]cn1)NC(=O)[C@@H](NC(=O)[C@@H](NC(=O)[C@H](CCC(N)=O)NC(=O)[C@H](C)NC(=O)[C@@H](N)CC(=O)O)[C@@H](C)O)C(C)C)C(C)C)C(=O)N[C@@H](CC(=O)O)C(=O)N[C@@H](CO)C(=O)N[C@@H](CC(=O)O)C(=O)NCC(=O)N[C@H]1CSSC[C@@H](C(=O)N[C@@H](Cc2c[nH]c3ccccc23)C(=O)N[C@@H](CC(N)=O)C(=O)N2CCC[C@H]2C(=O)N[C@@H](C)C(=O)N[C@H]2CSSC[C@@H](C(N)=O)NC(=O)[C@H](Cc3ccc(O)cc3)NC(=O)[C@H](Cc3c[nH]cn3)NC(=O)[C@H](CCCCN)NC(=O)CNC2=O)NC1=O,,RP-HPLC,mouse serum 25% in water,"50 µM, 24 h, 37 °C",,remaining peptide,4.15 ± 0.29%
O=C(O)c1cc(-c2ccc(-c3cc(CO)on3)cc2)c2ccc(-c3ccc(C(F)(F)F)cc3)cc2c1,,,rat Wistar male,"intravenous, 0.5 mg/kg, 24 h",,MRT(0-t),42.2 min
C[C@H](Cc1ccc(O)c(O)c1)[C@@H](C)Cc1ccc(O)c(O)c1,,,propylene glycol,"24 h, room temperature",,solubility,15000 µg/mL
CC[C@@H](C(N)=O)N1CCCC1=O,,LC-MS/MS,"rat, paraoxon-induced status epilepticus, whole blood","intramuscular, 50 mg/kg levetiracetam, with: atropine 5 mg/kg",,Cmax,22000 ng/mL
CCCCCCCCCCCCCCCC(=O)NCCCC[C@H](NC(=O)CNC(=O)[C@H](CO)NC(=O)CNC(=O)[C@@H](NC(=O)[C@@H](NC(=O)[C@@H](NC(=O)[C@H](CO)NC(=O)[C@H](CO)NC(=O)[C@H](CCC(N)=O)NC(=O)[C@H](Cc1c[nH]cn1)NC(=O)[C@H](Cc1c[nH]c2ccccc12)NC(=O)[C@H](CC(N)=O)NC(=O)CNC(=O)[C@@H](NC(=O)[C@H](CO)NC(=O)[C@H](CC(=O)O)NC(=O)[C@H](CC(C)C)NC(=O)[C@@H](NC(=O)[C@H](CCCCN)NC(=O)[C@H](CC(N)=O)NC(=O)[C@H](CO)NC(=O)[C@H](CCCNC(=N)N)NC(=O)[C@H](CCCNC(=N)N)NC(=O)[C@@H](NC(=O)[C@H](Cc1c[nH]c2ccccc12)NC(=O)[C@H](CCC(=O)O)NC(=O)[C@H](CCCCN)NC(=O)[C@H](CO)NC(=O)[C@H](CCC(=O)O)NC(=O)[C@H](CCC(=O)O)NC(=O)[C@H](CC(C)C)NC(=O)[C@H](CC(=O)O)NC(=O)[C@H](CO)NC(=O)[C@H](CCCCN)NC(=O)[C@@H](NC(=O)[C@H](CCCCN)NC(=O)[C@H](CC(N)=O)NC(=O)[C@H](CC(C)C)NC(=O)[C@@H](NC(=O)[C@@H](NC(=O)[C@H](CO)NC(=O)[C@@H](NC(=O)[C@H](CC(=O)O)NC(=O)[C@@H](NC(=O)[C@@H]1CCCN1C(=O)[C@H](CC(=O)O)NC(=O)[C@H](CC(C)C)NC(=O)[C@H](C)NC(=O)[C@@H](N)C(C)C)[C@@H](C)CC)[C@@H](C)CC)[C@@H](C)CC)C(C)C)[C@@H](C)CC)[C@@H](C)CC)[C@@H](C)CC)[C@@H](C)CC)[C@@H](C)O)[C@@H](C)O)[C@@H](C)CC)C(=O)O,,,PBS,,,solubility,60 ± 10 µg/mL
N-methyl-N′-nitro-N-nitrosoguanidine,,,Phenion FT skin model,concentration not given,,dose limiting by cytotoxicity,2 µg/cm²
Cc1cc(N(CCOS(C)(=O)=O)CCOS(C)(=O)=O)ccc1C(=O)O,,,"mouse, plasma","intravenous, 20 mg/kg of bendamustine, as bendamustine equivalents",,Cmax,18000 ng/mL
CCN1CCN(Cc2ccc(NC(=O)c3ccc(C)c(/C=C/c4cnc5[nH]ccc5c4OC)c3)cc2C(F)(F)F)CC1,"Dual specificity tyrosine-phosphorylation-regulated kinase 1B, with CDC37 (DYRK1B, Homo sapiens, UniProt Q9Y463)","inhibitor, cell-based kinome screen",,5 µM,reference: vehicle,log2 fold change,0.638 log2
C=C(C)[C@@H]1[C@H]2OC(=O)[C@@H]1[C@]1(O)C[C@H]3O[C@]34C(=O)O[C@H]2[C@]14C,,,"male NIH-NCI Swiss mice, brain","intraperitoneal, 2 mg/kg, 20 min",,peak brain concentration,351 ± 106 nM
CC#C/C(=N\OC[C@H]1COCCN1)c1ccc2ncnc(Nc3ccc(OCc4cccc(F)c4)c(Cl)c3)c2c1,"EPHA4 (Homo sapiens, UniProt P54764)",kinase activity,,10 µM,,inhibition,16.9%

# A few entries again:
Substance,target or system,assay,test system,setting,scale,endpoint,value
CCCCCCCCCCCCCCCC(=O)NCCCC[C@H](NC(=O)CNC(=O)[C@H](CO)NC(=O)CNC(=O)[C@@H](NC(=O)[C@@H](NC(=O)[C@@H](NC(=O)[C@H](CO)NC(=O)[C@H](CO)NC(=O)[C@H](CCC(N)=O)NC(=O)[C@H](Cc1c[nH]cn1)NC(=O)[C@H](Cc1c[nH]c2ccccc12)NC(=O)[C@H](CC(N)=O)NC(=O)CNC(=O)[C@@H](NC(=O)[C@H](CO)NC(=O)[C@H](CC(=O)O)NC(=O)[C@H](CC(C)C)NC(=O)[C@@H](NC(=O)[C@H](CCCCN)NC(=O)[C@H](CC(N)=O)NC(=O)[C@H](CO)NC(=O)[C@H](CCCNC(=N)N)NC(=O)[C@H](CCCNC(=N)N)NC(=O)[C@@H](NC(=O)[C@H](Cc1c[nH]c2ccccc12)NC(=O)[C@H](CCC(=O)O)NC(=O)[C@H](CCCCN)NC(=O)[C@H](CO)NC(=O)[C@H](CCC(=O)O)NC(=O)[C@H](CCC(=O)O)NC(=O)[C@H](CC(C)C)NC(=O)[C@H](CC(=O)O)NC(=O)[C@H](CO)NC(=O)[C@H](CCCCN)NC(=O)[C@@H](NC(=O)[C@H](CCCCN)NC(=O)[C@H](CC(N)=O)NC(=O)[C@H](CC(C)C)NC(=O)[C@@H](NC(=O)[C@@H](NC(=O)[C@H](CO)NC(=O)[C@@H](NC(=O)[C@H](CC(=O)O)NC(=O)[C@@H](NC(=O)[C@@H]1CCCN1C(=O)[C@H](CC(=O)O)NC(=O)[C@H](CC(C)C)NC(=O)[C@H](C)NC(=O)[C@@H](N)C(C)C)[C@@H](C)CC)[C@@H](C)CC)[C@@H](C)CC)C(C)C)[C@@H](C)CC)[C@@H](C)CC)[C@@H](C)CC)[C@@H](C)CC)[C@@H](C)O)[C@@H](C)O)[C@@H](C)CC)C(=O)O,,,PBS,,,solubility,60 ± 10 µg/mL
